Assay results collected from several papers.
Protocols differ between the studies behind these lines. Several values in a cell are separate wells, animals, samples, runs or records. Numbers after ± are the reported error.
SRC SH3-SH2-kinase domain: Proto-oncogene tyrosine-protein kinase Src, SH3-SH2-kinase domain (SRC, Gallus gallus, UniProt P00523)
Genome polyprotein NS3 helicase domain: Genome polyprotein, NS3 helicase domain (Hepatitis C virus genotype 1b, UniProt Q9WMX2)

| SMILES | target | test | system | setting | IC50 |
| --- | --- | --- | --- | --- | --- |
| C[C@@H](O)[C@@H]1NC(=O)[C@H](Cc2ccccc2)NC(=O)[C@H]([C@@H](C)O)NC(=O)[C@H](CCCCN)NC(=O)[C@@H](Cc2c[nH]c3ccccc23)NC(=O)[C@H](Cc2ccccc2)NC(=O)[C@H](Cc2ccccc2)NC(=O)[C@H](CC(N)=O)NC(=O)[C@H](NC(=O)[C@@H](N)Cc2ccc(Cl)cc2)CSSC[C@@H](C(=O)N[C@@H](Cc2ccc3ccccc3c2)C(N)=O)NC1=O | SSTR5 (Homo sapiens, UniProt P35346) | ligand displacement, radioligand | – | pH 8.2, cell membranes | 0.009 µM |
| O=C1Nc2ccc(-c3ccc(-c4ccc(O)cc4)cc3)cc2/C1=C/c1ccc(N2CCNCC2)cc1 | FGFR3 (Homo sapiens, UniProt P22607) | enzyme activity, inhibitor | – | – | 0.00677 µM |
| CCNC(=O)[C@@H]1CCNC(=O)[C@H](CCCNC(=O)c2cnccn2)NC(=O)[C@H](Cc2ccccc2)NC(=O)[C@H](CC2CC2)NC(=O)/C=C\C(=O)N1 | SRC SH3-SH2-kinase domain | enzyme activity, inhibitor, Z'-LYTE FRET | – | Src residues 83-533, added: 50 µM ATP | 0.19 ± 0.01 µM |
| Brc1ccc(-c2csc(Nc3ccc4c(c3)OCO4)n2)cc1 | Capsid scaffolding protein, protease domain (Human herpesvirus 8 type P, UniProt Q2HRB6) | protease activity, inhibitor | – | added: fluorogenic peptide substrate | 350 µM |
| Cc1ccc2nc(NN)n(Cc3ccccc3)c(=O)c2c1 | Genome polyprotein, protease (Hepatitis C virus genotype 1b, UniProt O92972) | enzyme activity, inhibitor, FRET | – | – | 29.6 µM |
| COc1ccc(Cl)cc1NC(=O)Nc1cc(C)nc2ccccc12 | Trypanothione synthetase (Trypanosoma brucei brucei, UniProt Q586P2) | enzyme activity, BIOMOL Green phosphate release | – | 1 h preincubation | 2 µM and 1.5 µM |
| O=S(=O)(NCc1nc(-c2ccccc2Cl)no1)c1ccccc1 | Trypanothione synthetase (Trypanosoma brucei, UniProt Q586P2) | enzyme activity, inhibitor | – | – | 25 µM |
| O=S(=O)(Nc1cscn1)c1c(F)cc(NCc2c(F)ccc(F)c2CN2CCC2)cc1F | SCN8A (Homo sapiens, UniProt Q9UQD0) | use-dependent ion current block, inhibitor, patch clamp | – | held at V0.5, pulse 500 | 0.0334 µM |
| CCOc1cncc(-c2ccc(NC(=O)C(CC)c3ccnc(NS(=O)(=O)C4CC4)n3)nc2)n1 (centres unmarked) | Ctps2 (Mus musculus, UniProt P70303) | enzyme activity, inhibitor, mass spectrometry | – | – | 0.126 µM |
| O=S(=O)(NCc1csc(-c2ccccc2)n1)c1cc(F)ccc1F | Trypanothione synthetase (Trypanosoma brucei, UniProt Q586P2) | enzyme activity, inhibitor | – | – | 6.1 µM |
| COP(=O)(OC)OC[C@H]1OC(O)(COP(=O)(OC)OC)[C@@H](O)[C@@H]1O (some centres unmarked) | Phosphoglycerate mutase 1 (Homo sapiens, UniProt P18669) | enzyme activity, inhibitor | – | – | 1520 µM |
| CC(=O)c1ccc2c(c1)sc1nc(=O)c(C#N)cn12 | DNA gyrase (gyrA/gyrB, Escherichia coli, UniProt P0AES4+P0AES6) | enzyme activity, inhibitor | – | – | 3.17 µM |
| CCCCCCCCCCCCCCCC(=O)SC[C@H](NC(=O)CNC(=O)CNc1ccc([N+](=O)[O-])c2nonc12)C(=O)N[C@H](C(=O)N[C@@H](CCCCN)C(=O)N[C@H](C(=O)N[C@@H](CCCCN)C(=O)N[C@@H](CCCCN)C(N)=O)[C@@H](C)CC)C(C)C | Palmitoyl-protein thioesterase 1 (Homo sapiens, UniProt P50897) | enzyme activity, inhibitor | lymphoblast or fibroblast lysate | pH 4.7, added: MUGS-palmitate | 3 µM |
| NC(=O)[C@@H]1CCCNC(=O)[C@H](Cc2ccc([N+](=O)[O-])cc2)NC(=O)[C@H](Cc2ccc(F)cc2)NC(=O)[C@H](CC2CCCCC2)NC(=O)/C=C/C(=O)N1 | SRC SH3-SH2-kinase domain | enzyme activity, inhibitor, Z'-LYTE FRET | – | Src residues 83-533, added: 50 µM ATP | ≤ 0.004 µM |
| CCCCCCCCCCCCCCCCCC(=O)OCC(O)COC1OC(CS(=O)(=O)O)C(O)C(O)C1O (centres unmarked) | DNA polymerase (POLA1, Bos taurus, UniProt A0AAA9TD94) | enzyme activity, inhibitor, radiometric | – | – | 1.6 µM and 2.1 µM |
| CC[C@H](C)[C@H](NC(=O)[C@H](CO)NC(=O)[C@H](CCC(=O)O)NC(=O)[C@@H](N)CC(C)C)C(=O)N[C@@H](Cc1ccccc1)C(=O)N[C@@H](CCCNC(=N)N)C(=O)N[C@@H](CO)C(=O)N[C@@H](CC(C)C)C(=O)N[C@@H](CC(C)C)C(=O)N[C@@H](Cc1ccccc1)C(=O)N[C@@H](CCCNC(=N)N)C(=O)N[C@H](C(=O)N[C@@H](CCSC)C(=O)O)C(C)C | N-formyl peptide receptor 2, deglycosylated (FPR2, Homo sapiens, UniProt P25090) | binding | HEK293 glycosidase F treated | added: [3H]LXA4 | ~0.01 µM |

| SMILES | target | test | system | setting | IC50 |
| --- | --- | --- | --- | --- | --- |
| Cc1ccc2nc(-c3ccc4nc(-c5ccc6nc(-c7ccc8nc(-c9ccc(N)cc9)sc8c7)sc6c5)sc4c3)sc2c1S(=O)(=O)O | Genome polyprotein NS3 helicase domain | DNA unwinding, inhibitor, molecular beacon helicase | – | added: DNA substrate | ~1 µM |
| O=C(Nc1cccc(C(=O)Nc2ccc(S(=O)(=O)O)c3cc(S(=O)(=O)O)cc(S(=O)(=O)O)c23)c1)Nc1cccc(C(=O)Nc2ccc(S(=O)(=O)O)c3cc(S(=O)(=O)O)cc(S(=O)(=O)O)c23)c1 | Genome polyprotein NS3 helicase domain | helicase activity, molecular beacon helicase | – | added: DNA substrate | 2.6 ± 0.4 µM |
| N#Cc1cccc(CN2C[C@@H]3C[C@H](C2)c2c(-c4ccc5ccccc5c4)ccc(=O)n2C3)c1 | PLK2 (Homo sapiens, UniProt Q9NYY3) | ligand displacement, FP | – | – | 95.5 µM |
| Nc1ncnc2c1c(-c1ccc(Oc3ccccc3)cc1)nn2C1CCCC1 | Proto-oncogene tyrosine-protein kinase Src, SH2 (SRC, Gallus gallus, UniProt P00523, G530I/P529E/Q528E) | cell-free assay, inhibitor | – | – | < 0.025 µM |
| COC(=O)N1CCC(CN2CCC(CNC(=O)c3cccc4[nH]c(C(C)C)nc34)CC2)CC1 | SLC22A8 (Homo sapiens, UniProt Q8TCC7) | transporter uptake, inhibitor | – | – | > 10 µM |
| NC(=O)[C@@H]1CCNC(=O)[C@H](CCCNC(=O)c2cnccn2)NC(=O)[C@H](Cc2ccco2)NC(=O)[C@H](CC2CC2)NC(=O)/C=C\C(=O)N1 | SRC SH3-SH2-kinase domain | enzyme activity, inhibitor, Z'-LYTE FRET | – | Src residues 83-533, added: 50 µM ATP | 0.6 ± 0.05 µM |
| COc1ccc([C@@H]2CC(=O)c3c(O)cc(O[C@@H]4O[C@H](CO[C@@H]5O[C@@H](C)[C@H](O)[C@@H](O)[C@H]5O)[C@@H](O)[C@H](O)[C@H]4O)cc3O2)cc1 | SLCO1B1 (Homo sapiens, UniProt Q9Y6L6) | 8-FcA uptake, inhibitor, flow cytometry | HEK293 expressing SLCO1B1 | 10 min, added: 8-FcA 2.5 µM | > 100 µM |
| C=CC(=O)N1CCc2ccc(-n3c(=O)ccc4cnc5ccc(-c6cnn(C)c6)cc5c43)cc21 | ITK (Homo sapiens, UniProt Q08881) | enzyme activity, inhibitor | – | – | 2.83 µM |
| CC(C)C[C@H](NC(=O)[C@H](CO)NC(=O)[C@@H](NC(=O)[C@@H]1CCCN1C(=O)[C@H](CCCNC(=N)N)NC(=O)[C@H](CCC(=O)O)NC(=O)[C@H](CCCCN)NC(=O)[C@H](CCCNC(=N)N)NC(=O)[C@H](CCCNC(=N)N)NC(=O)CNC(=O)[C@H](C)NC(=O)[C@@H](N)Cc1ccc(O)cc1)[C@@H](C)O)C(=O)N[C@@H](CC(N)=O)C(=O)N[C@H](C(=O)N[C@@H](Cc1ccccc1)C(=O)N1CCC[C@H]1C(=O)O)C(C)C | Mitogen-activated protein kinase 14 (Rattus norvegicus, UniProt P70618, E160S/E163T/N159K) | kinase activity, inhibitor, competitive kinase | – | – | > 100 µM |
| CNC(=O)N(C)c1ccc(C(=O)Nc2ccc(F)cc2C(=O)Nc2ccc(Cl)cn2)cc1 | F10 (Homo sapiens, UniProt P00742) | enzyme activity, inhibitor, absorbance | – | – | 0.0005 µM |
| C=C1C(=O)O[C@@H]2[C@H]3C(CO)=CC(=O)C3=C(C)C[C@H](O)[C@@H]12 | MAL12 (Saccharomyces cerevisiae S288c, UniProt P53341) | enzyme activity, inhibitor, absorbance | – | – | 52.8 µM |
| Cc1nc2cc(Nc3nc(Nc4cc(C5CCC5)[nH]n4)c4ccccc4n3)ccc2[nH]1 | ULK1 (Homo sapiens, UniProt O75385) | enzyme activity, inhibitor, radiometric | – | – | > 0.3 µM |
| COCCCN1CCc2c(Cc3ccc(Cl)cc3)[nH]c3c(OC(F)F)ccc(c23)C1=O | PDE10A (Homo sapiens, UniProt Q9Y233) | enzyme activity, inhibitor | – | – | 1.46 µM |
| Cc1ccccc1-c1cc(N2CCN(C)CC2)ccc1N(C)C(=O)C(C)(C)c1cc(C(F)(F)F)cc(C(F)(F)F)c1 | TACR1 (Homo sapiens, UniProt P25103) | nuclear ERK activity, antagonist, FRET biosensor | HEK293T | 30 to 90 min preincubation, added: substance P 10 nM | 0.417 µM |
| O=C1NC(=O)/C(=C/c2ccc(C(=O)NC[C@@H]3C[C@@H](SC(c4ccccc4)(c4ccccc4)c4ccccc4)CN3C(=O)c3ccccc3C(=O)c3ccc(F)cc3F)cc2)S1 | PLA2G4A (Homo sapiens, UniProt P47712) | enzyme activity, inhibitor, LC-MS, refers to: arachidonic acid | – | added: PAPC substrate | 1.38 µM and 1.47 µM and 1.88 µM |
| Cc1ccc(/N=C/c2ccc(Cl)cc2Cl)cc1 | Xanthine dehydrogenase/oxidase, oxidase form (XDH, Bos taurus, UniProt P80457) | enzyme activity, inhibitor | – | – | ≤ 379 µM |
